Published values gathered from unrelated publications.
Several values in a cell are separate wells, animals, samples, runs or records. ± marks the error that the study gave.
RPA1 N-terminal domain: Replication protein A 70 kDa DNA-binding subunit, N-terminal domain (RPA1, Homo sapiens, UniProt P27694)
Chain of UniProt P27694 (whole entry, looked up): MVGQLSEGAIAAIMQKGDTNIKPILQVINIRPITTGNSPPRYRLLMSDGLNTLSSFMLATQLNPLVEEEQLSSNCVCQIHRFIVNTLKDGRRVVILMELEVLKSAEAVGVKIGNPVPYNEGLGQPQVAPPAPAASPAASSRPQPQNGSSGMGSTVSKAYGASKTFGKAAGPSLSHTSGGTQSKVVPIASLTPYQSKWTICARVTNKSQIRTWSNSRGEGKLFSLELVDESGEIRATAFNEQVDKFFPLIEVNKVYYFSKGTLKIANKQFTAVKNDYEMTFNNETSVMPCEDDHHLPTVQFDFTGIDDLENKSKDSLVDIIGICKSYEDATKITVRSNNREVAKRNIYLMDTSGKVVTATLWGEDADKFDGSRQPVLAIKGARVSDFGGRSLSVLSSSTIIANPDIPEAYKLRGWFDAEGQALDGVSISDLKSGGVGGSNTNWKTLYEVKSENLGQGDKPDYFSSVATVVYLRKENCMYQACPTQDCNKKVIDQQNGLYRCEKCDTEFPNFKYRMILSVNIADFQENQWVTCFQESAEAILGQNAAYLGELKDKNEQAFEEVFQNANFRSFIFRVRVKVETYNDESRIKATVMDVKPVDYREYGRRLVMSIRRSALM
S100A9: Protein S100-A9 (S100A9, Homo sapiens, UniProt P06702)
Chain of UniProt P06702 (whole entry, looked up): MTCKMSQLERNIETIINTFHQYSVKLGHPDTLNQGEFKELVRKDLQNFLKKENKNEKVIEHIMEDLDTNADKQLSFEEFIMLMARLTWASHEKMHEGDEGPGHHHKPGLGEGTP
Methyl-accepting chemotaxis protein CtaA: Methyl-accepting chemotaxis protein CtaA (Pseudomonas fluorescens, UniProt Q3K7T6)
Methyl-accepting chemotaxis protein CtaA sensing domain: Methyl-accepting chemotaxis protein CtaA, sensing domain (Pseudomonas fluorescens, UniProt Q3K7T6)
Chain of UniProt P53215 (whole entry, unmodified, looked up): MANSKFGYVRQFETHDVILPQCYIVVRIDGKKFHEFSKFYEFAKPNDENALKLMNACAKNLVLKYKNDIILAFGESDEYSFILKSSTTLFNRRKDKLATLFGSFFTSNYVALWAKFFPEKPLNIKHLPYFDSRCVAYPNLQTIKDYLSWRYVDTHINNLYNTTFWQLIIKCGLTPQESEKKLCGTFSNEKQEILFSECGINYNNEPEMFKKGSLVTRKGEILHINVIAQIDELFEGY
Chain of UniProt O94788 (whole entry, looked up): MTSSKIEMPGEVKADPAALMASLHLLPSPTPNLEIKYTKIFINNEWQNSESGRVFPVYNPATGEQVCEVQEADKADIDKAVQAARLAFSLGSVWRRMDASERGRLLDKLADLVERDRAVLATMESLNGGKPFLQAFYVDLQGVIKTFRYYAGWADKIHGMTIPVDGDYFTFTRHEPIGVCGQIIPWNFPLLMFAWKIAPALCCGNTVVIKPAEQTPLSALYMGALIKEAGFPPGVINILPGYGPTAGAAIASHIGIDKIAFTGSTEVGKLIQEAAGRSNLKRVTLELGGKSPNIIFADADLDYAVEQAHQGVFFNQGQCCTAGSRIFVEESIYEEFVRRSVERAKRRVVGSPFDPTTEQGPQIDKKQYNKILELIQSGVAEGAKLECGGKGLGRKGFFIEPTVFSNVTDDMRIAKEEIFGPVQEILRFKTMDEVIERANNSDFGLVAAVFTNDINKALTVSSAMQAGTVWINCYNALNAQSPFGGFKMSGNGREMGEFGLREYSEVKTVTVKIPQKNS
Chain of UniProt P18031 (whole entry, looked up): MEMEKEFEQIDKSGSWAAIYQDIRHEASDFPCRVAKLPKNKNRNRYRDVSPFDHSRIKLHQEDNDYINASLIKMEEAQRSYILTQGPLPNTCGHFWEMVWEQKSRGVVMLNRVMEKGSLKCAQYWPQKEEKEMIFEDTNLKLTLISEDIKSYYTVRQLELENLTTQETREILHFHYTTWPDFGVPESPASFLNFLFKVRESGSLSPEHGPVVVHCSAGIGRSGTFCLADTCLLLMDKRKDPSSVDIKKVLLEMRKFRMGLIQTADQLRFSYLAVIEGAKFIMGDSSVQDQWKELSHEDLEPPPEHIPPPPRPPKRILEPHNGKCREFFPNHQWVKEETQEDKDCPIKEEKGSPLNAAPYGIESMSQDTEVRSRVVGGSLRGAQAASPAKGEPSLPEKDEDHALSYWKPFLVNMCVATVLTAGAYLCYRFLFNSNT
Chain of UniProt P02730 (whole entry, looked up): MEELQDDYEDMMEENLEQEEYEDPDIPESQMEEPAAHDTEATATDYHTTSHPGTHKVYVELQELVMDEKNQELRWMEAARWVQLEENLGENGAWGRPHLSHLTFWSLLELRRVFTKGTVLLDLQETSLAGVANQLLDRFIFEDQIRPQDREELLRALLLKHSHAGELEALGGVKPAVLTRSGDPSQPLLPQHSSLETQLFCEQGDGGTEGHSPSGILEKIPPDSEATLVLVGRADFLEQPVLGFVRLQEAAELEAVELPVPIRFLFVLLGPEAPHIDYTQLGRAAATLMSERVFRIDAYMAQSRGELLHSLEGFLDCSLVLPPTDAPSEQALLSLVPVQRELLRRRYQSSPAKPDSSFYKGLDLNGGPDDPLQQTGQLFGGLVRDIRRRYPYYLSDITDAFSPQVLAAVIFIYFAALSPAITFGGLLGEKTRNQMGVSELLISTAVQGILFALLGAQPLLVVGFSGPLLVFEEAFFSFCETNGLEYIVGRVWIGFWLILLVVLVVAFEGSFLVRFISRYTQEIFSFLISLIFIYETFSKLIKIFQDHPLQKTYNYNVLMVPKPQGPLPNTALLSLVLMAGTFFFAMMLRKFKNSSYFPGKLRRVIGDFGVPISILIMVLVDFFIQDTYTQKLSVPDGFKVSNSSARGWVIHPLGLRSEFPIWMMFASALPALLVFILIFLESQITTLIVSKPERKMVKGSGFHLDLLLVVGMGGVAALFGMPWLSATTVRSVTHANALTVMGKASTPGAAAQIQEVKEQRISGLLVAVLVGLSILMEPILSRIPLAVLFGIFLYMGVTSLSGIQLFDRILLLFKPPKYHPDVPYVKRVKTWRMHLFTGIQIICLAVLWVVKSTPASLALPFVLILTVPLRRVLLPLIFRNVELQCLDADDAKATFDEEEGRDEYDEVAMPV
Chain of UniProt P54941 (whole entry, looked up): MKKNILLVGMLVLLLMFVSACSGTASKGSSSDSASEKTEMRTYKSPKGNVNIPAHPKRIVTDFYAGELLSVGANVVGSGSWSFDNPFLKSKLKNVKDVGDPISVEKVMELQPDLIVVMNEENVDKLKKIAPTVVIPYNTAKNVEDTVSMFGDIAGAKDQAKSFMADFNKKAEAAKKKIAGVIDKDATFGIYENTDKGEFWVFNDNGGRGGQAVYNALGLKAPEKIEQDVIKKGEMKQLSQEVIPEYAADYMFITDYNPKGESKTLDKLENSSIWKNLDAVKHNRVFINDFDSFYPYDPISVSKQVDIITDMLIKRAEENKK
Chain of UniProt P51800 (whole entry, unmodified, looked up): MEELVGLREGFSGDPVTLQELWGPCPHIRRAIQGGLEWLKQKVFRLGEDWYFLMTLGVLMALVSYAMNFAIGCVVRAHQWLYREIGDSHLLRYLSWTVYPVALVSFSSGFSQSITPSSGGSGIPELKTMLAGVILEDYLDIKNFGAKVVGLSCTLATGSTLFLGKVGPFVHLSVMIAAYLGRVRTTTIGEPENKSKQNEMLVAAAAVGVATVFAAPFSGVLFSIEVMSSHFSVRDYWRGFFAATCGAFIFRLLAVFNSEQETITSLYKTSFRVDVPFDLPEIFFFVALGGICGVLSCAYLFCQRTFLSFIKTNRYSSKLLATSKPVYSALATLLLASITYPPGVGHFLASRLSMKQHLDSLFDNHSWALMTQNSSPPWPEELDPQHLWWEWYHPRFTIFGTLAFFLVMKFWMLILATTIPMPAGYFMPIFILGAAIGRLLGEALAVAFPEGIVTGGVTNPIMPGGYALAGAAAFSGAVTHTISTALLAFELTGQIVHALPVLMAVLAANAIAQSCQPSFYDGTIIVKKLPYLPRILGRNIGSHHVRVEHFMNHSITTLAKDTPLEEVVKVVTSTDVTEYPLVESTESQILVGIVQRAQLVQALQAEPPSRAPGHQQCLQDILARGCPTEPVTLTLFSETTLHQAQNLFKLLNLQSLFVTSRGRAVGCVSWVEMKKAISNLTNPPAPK
Chain of UniProt Q14849 (whole entry, looked up): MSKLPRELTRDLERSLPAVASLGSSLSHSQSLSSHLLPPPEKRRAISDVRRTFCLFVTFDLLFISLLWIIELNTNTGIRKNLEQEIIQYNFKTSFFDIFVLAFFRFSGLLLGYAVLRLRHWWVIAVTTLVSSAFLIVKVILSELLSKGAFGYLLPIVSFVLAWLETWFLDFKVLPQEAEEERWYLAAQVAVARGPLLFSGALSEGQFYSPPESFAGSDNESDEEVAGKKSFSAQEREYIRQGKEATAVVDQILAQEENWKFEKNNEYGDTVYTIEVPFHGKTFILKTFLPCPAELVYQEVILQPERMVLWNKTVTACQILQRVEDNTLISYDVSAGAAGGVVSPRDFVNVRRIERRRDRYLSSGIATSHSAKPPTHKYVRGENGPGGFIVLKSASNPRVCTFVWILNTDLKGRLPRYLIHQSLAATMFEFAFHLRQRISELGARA

Nc1ncnc2c1ncn2[C@H]1C[C@H](O)[C@@H](COP(=O)(O)OP(=O)(O)OP(=O)(O)O)O1  Kd (DNA polymerase iota (Homo sapiens, UniProt Q9UNA4); substrate; pH 8.0, 37 °C, pre-steady-state, Mg2+, added: dNTP opposite O2-POB-dT template): 43 ± 12 µM
Cc1ccc(C(=O)Nc2cc(Br)ccc2C(=O)O)cc1S(=O)(=O)Nc1ccc(Cl)c(Cl)c1  Kd (RPA1 N-terminal domain; fluorescence polarization competition; added: FITC-ATRIP probe): 0.81 ± 0.3 µM
CC[C@H](C)[C@H](NC(=O)[C@@H](NC(=O)[C@@H](NC(=O)[C@H](CO)NC(=O)[C@H](CO)NC(=O)[C@@H](NC(=O)[C@H](CC(C)C)NC(=O)[C@H](CC(N)=O)NC(=O)[C@H](C)NC(=O)[C@H](CCC(=O)O)NC(=O)[C@H](CCCNC(=N)N)NC(=O)[C@H](CC(=O)O)NC(=O)[C@@H](N)CC(C)C)[C@@H](C)O)C(C)C)[C@@H](C)O)C(=O)N[C@@H](CC(C)C)C(=O)N1CCC[C@H]1C(=O)N[C@@H](CC(C)C)C(=O)N1CCC[C@H]1C(=O)N[C@@H](CC(C)C)C(=O)N[C@@H](CCC(N)=O)C(=O)N[C@@H](CC(N)=O)C(=O)N[C@@H](C)C(=O)N[C@H](C(=O)N[C@H](C(=O)N[C@@H](CCC(=O)O)C(=O)N[C@@H](C)C(=O)NCC(=O)N[C@H](C(=O)N[C@@H](CCCNC(=N)N)C(=O)O)[C@@H](C)O)C(C)C)[C@@H](C)O  Kd (S100A9; binding, ELISA; added: His-tagged S100A9): > 0.1 µM
C#CC[C@@H](NC(=O)[C@@H]1C[C@@H](C2CCCCC2)CN1C(=O)CSC1CCN(C(=O)CC[C@H](NC(=O)N[C@@H](CCC(=O)O)C(=O)O)C(=O)O)CC1)C(=O)NCCOCCOCCNC(=S)Nc1ccc2c(c1)C(=O)OC21c2ccc(O)cc2Oc2cc(O)ccc21  Kd (N-acetylated-alpha-linked acidic dipeptidase 2 (Homo sapiens, UniProt Q9Y3Q0); cell-free assay, FP): 0.037 µM
O=C(CO)COP(=O)(O)O  Kd (cggR (Bacillus subtilis, UniProt O32253); binding, fluorescence titration): 144 µM
Nc1ccn([C@@H]2O[C@H](CO)[C@@H](O)[C@H]2O)c(=O)n1  Kd (type 1 ribosome-inactivating protein (Momordica balsamina, UniProt D9J2T9); surface plasmon resonance; 25 °C): 0.94 µM
CC/C=C/C=C\C=C/C=C/CCCCCCCC(=O)SCCNC(=O)CCNC(=O)[C@H](O)C(C)(C)COP(=O)(O)OP(=O)(O)OC[C@H]1O[C@@H](n2cnc3c(N)ncnc32)[C@H](O)[C@@H]1OP(=O)(O)O (relative stereo)  Kd (Carnitine O-palmitoyltransferase 1, liver isoform, C-terminal peptide (Rattus norvegicus, UniProt P32198); fluorescence titration; pH 7.4, 24 °C): 0.009 ± 0.001 µM
Nc1ncnc2c1ncn2[C@@H]1O[C@H](COP(=O)(O)OP(=O)(O)OP(=O)(O)O)[C@@H](O)[C@H]1O  Kd (tRNA(His) guanylyltransferase (THG1, Saccharomyces cerevisiae, UniProt P53215, R27A); tRNA(His) adenylylation, substrate, single-turnover kinetics; pH 6.0, room temperature, added: p-tRNA(His)): 300 ± 100 µM
Nc1ncnc2c1ncn2[C@@H]1O[C@H](COP(=O)(O)OP(=O)(O)OP(=O)(O)O)[C@@H](O)[C@H]1O  Kd (P2X purinoceptor 7 (P2rx7, Rattus norvegicus, UniProt Q64663); binding, bio-layer interferometry): 0.54 ± 0.23 µM
CC(C)[C@H](N)C(=O)O  Kd (Methyl-accepting chemotaxis protein CtaA; binding, ITC; melting temperature): 4 ± 1 µM
O=P(O)(O)O[C@H]1[C@H](OP(=O)(O)O)[C@@H](O)[C@H](O)[C@H](O)[C@@H]1OP(=O)(O)O  Kd (Fermitin family homolog 3, PH domain (Fermt3, Mus musculus, UniProt Q8K1B8); SPR; pH 7.5, biotinylated compound immobilised): 284 µM
c1ccc2nc3ccccc3cc2c1  Kd (HIV-1 SL2 RNA stem-loop; binding, ESI-FTMS titration; pH 7.5): 2.8 ± 0.3 µM
MDPHAHNGGGS  Kd (S100A9; SPR; peptide; 6.25 to 100 µM, pH 7.4): no binding
N[C@@H](Cc1ccc(OP(=O)(O)O)cc1)C(=O)O  Kd (Tyrosine-protein phosphatase non-receptor type 11, N-SH2 domain (PTPN11, Homo sapiens, UniProt Q06124, K55V/N37V/T42A); binding to superbinder N-SH2 domain; 298 K): 160 µM
NC(=O)c1ccc[n+]([C@@H]2O[C@H](COP(=O)([O-])OP(=O)(O)OC[C@H]3O[C@@H](n4cnc5c(N)ncnc54)[C@H](O)[C@@H]3O)[C@@H](O)[C@H]2O)c1  Kd (ALDH1A2 (Homo sapiens, UniProt O94788); isothermal titration calorimetry; 30 °C, reverse titration): 11.5 µM and 12 µM
CCCCCCCCCCCCOC(=O)[C@@H](C)[C@@]1(O)[C@@H](O[C@@H]2OC[C@H](O)[C@H](O[C@@H]3OC[C@@H](O)[C@H](O)[C@H]3OC(=O)c3ccc(OC)cc3)[C@H]2OC(C)=O)C[C@H]2[C@@H]3CC=C4C[C@@H](O)CC[C@]4(C)[C@H]3CC[C@@]21C  Kd (PTPN1 (Homo sapiens, UniProt P18031); binding, microscale thermophoresis; HEK293 lysate, GFP-tagged protein; pH 7.5, 25 °C): 0.0232 ± 0.0008 µM
O=C(O)c1cc(NC(=O)C2CC2c2ccccc2)ccc1O (centres unmarked)  Kd (GTPase KRas (KRAS, Homo sapiens, UniProt P01116, G12D); microscale thermophoresis; first high-affinity site, added: GNP-bound): 0.35 ± 0.08 µM
CC(=O)N([O-])CCCCCNC(=O)CCC(=O)N([O-])CCCCCNC(=O)CCC(=O)N([O-])CCCCCN.[Fe+3]  Kd (Iron(3+)-hydroxamate-binding protein YxeB (yxeB, Bacillus subtilis, UniProt P54941); binding, Trp fluorescence quenching; pH 7.4, added: yxeB 100 nM): 0.05 ± 0.03 µM
[Mg+2]  Kd (pyruvate carboxylase Rhizobium etli; enzyme activity; added: MgATP varied): 1200 µM
Nc1nc2c(ncn2[C@@H]2O[C@H](COP(=O)(O)OP(=O)(O)OP(=O)(O)O)[C@@H](O)[C@H]2O)c(=O)[nH]1  Kd (tRNA(His) guanylyltransferase (THG1, Saccharomyces cerevisiae, UniProt P53215, R133A); nucleotidyl transfer, substrate, single-turnover kinetics; pH 7.5, room temperature, added: ppp-tRNA(His)): 85 ± 30 µM
CN(C)[C@@H]1C(O)=C(C(N)=O)C(=O)[C@@]2(O)C(O)=C3C(=O)c4c(O)ccc(Cl)c4[C@@](C)(O)[C@H]3C[C@@H]12  Kd (HIV-1 SL2 RNA stem-loop; binding, ESI-FTMS titration; pH 7.5): 161 ± 14.8 µM
CC(=O)N[C@@H](CC(C)C)C(=O)N[C@@H](CCCCN)C(=O)N[C@@H](CCCCN)C(=O)N[C@@H](CC(C)C)C(=O)N[C@@H](CC(C)C)C(=O)N[C@@H](CCCCN)C(=O)N[C@@H](CC(C)C)C(=O)N[C@@H](CC(C)C)C(=O)N[C@@H](CCCCN)C(=O)N[C@@H](CCCCN)C(=O)N[C@@H](CC(C)C)C(=O)N[C@@H](CC(C)C)C(=O)N[C@@H](CCCCN)C(=O)N[C@@H](Cc1c[nH]c2ccccc12)C(=O)N[C@@H](C)C(=O)NCC(N)=O  Kd (16S rRNA A-site hairpin (Escherichia coli); competitive fluorescence anisotropy; pH 7.4, 20 °C, added: rhodamine-Rev peptide): 0.0033 ± 0.0003 µM
CC1=C(/C=C/C(C)=C/C=C/C(C)=C/C=C/C=C(C)/C=C/C=C(C)/C=C/C2=C(C)C[C@@H](O)CC2(C)C)C(C)(C)C[C@H](O)C1  Kd (StAR-related lipid transfer protein 3, START domain (STARD3, Homo sapiens, UniProt Q14849); binding, SPR; 25 °C): 1.6 ± 0.01 µM
C[n+]1cccc2cc(C=NNC(=O)c3ccc4ccc5ccc(C(=O)NN=Cc6ccc7c(ccc[n+]7C)c6)nc5c4n3)ccc21  Kd (telomeric G4 DNA hybrid-1; binding, native ESI-MS; 100 mM trimethylammonium acetate; 1 mM KCl): 0.42 µM
CC(=O)N[C@@H](CC(C)C)C(=O)N[C@@H](CCCCN)C(=O)N[C@@H](CCCCN)C(=O)N[C@@H](CC(C)C)C(=O)N[C@@H](Cc1c[nH]c2ccccc12)C(=O)N[C@@H](CCCCN)C(=O)N[C@@H](CC(C)C)C(=O)N[C@@H](CC(C)C)C(=O)N[C@@H](CCCCN)C(=O)N[C@@H](CCCCN)C(=O)N[C@@H](CC(C)C)C(=O)N[C@@H](CC(C)C)C(=O)N[C@@H](CCCCN)C(=O)N[C@@H](CC(C)C)C(=O)N[C@@H](C)C(=O)NCC(N)=O  Kd (16S rRNA A-site hairpin (Escherichia coli); competitive fluorescence anisotropy; pH 7.4, 20 °C, added: rhodamine-Rev peptide): 0.012 ± 0.001 µM
[I-].[K+]  Kd (SLC4A1 (Homo sapiens, UniProt P02730); Cl- exchange, inhibitor, 36Cl flux, two-site model; erythrocytes; only site D protonated): 56000 µM
CC1=C(/C=C/C(C)=C/C=C/C(C)=C/C=C/C=C(C)/C=C/C=C(C)/C=C/C2=C(C)CCCC2(C)C)C(C)(C)CCC1  Kd (Albumin (ALB, Homo sapiens, UniProt P02768); binding, SPR, FastStep injection; pH 7.4, 25 °C, immobilized protein): 1.44 ± 0.07 µM
CC(C)C[C@H](N)C(=O)O  Kd (Methyl-accepting chemotaxis protein CtaA; binding, ITC; melting temperature): 10 ± 2 µM
CC1=C(/C=C/C(C)=C\C=C\C(C)=C\CO)C(C)(C)CCC1  Kd (Retinol-binding protein 1 (Rbp1, Rattus norvegicus, UniProt P02696); binding, fluorescence titration; pH 7.4, 25 °C): 0.011 ± 0.002 µM
NC1(C(=O)NCCCn2cc(-c3ccc(OC(F)(F)F)cc3)c3cc(CN4CCN(Cc5c(Cl)cccc5Cl)CC4)ccc32)CCNCC1  Kd (GTPase KRas, GppNHp-bound (KRAS, Homo sapiens, UniProt P01116, G12D); binding, 19F NMR titration): < 20 µM
CC[n+]1c(-c2ccccc2)c2cc(N)ccc2c2ccc(N)cc21  Kd (HIV-1 SL2 RNA stem-loop; binding, ESI-FTMS titration; pH 7.5): 2.6 ± 0.2 µM
C[C@H](N)C(=O)O  Kd (Methyl-accepting chemotaxis protein CtaA sensing domain; binding, thermal shift, unfolding equilibrium; 25 °C): 3.8 ± 0.7 µM
CC(C)C1=CC23CCC4C(C)(C(=O)O)CCCC4(C)C2CC1C(C(=O)O)C3C(=O)O (centres unmarked)  Kd (RPA1 N-terminal domain; binding, fluorescence polarization; 5% DMSO, added: FITC-ATRIP 50 nM): 18 µM
N[C@@H](CO)C(=O)O  Kd (Methyl-accepting chemotaxis protein CtaA sensing domain; binding, thermal shift, zero heat capacity): 18 ± 4 µM
O=C(O)c1cccnc1Nc1cccc(C(F)(F)F)c1  Kd (CLCNKA (Homo sapiens, UniProt P51800, N257A); chloride current, blocker, voltage clamp; Xenopus oocytes): ~1 µM
